Experimental data collected from several papers.
Each line is one published result; not all experiments were run side by side. Values joined by “and” are separate records of one study, mostly repeats; a detail may differ. ± marks the error that the study gave. ≈ marks a conversion by molar mass, not a printed value.

COc1cccc(OC)c1-c1cc(C(=O)NC2(C(=O)O)C3CC4CC(C3)CC2C4)nn1-c1ccc(C(=O)N(C)CCCN(C)C(=O)[C@H](CCCCNC(=O)[C@H](CC(C)C)NC(=O)C2OC2C(=O)O)NC(=O)CN2CCN(CC(=O)[O-])CCN(CC(=O)[O-])CCN(CC(=O)[O-])CC2)cc1C(C)C.[177Lu+3] (mixture of isomers)  tumour-to-liver ratio (mouse, HT-29 xenograft; 72 h post injection, biodistribution; baseline: tumour over liver uptake): 3.8
CCC1CNC(CC)CN(C(C(=O)[O-])c2ccc(C(=O)[O-])cc2)C(CC)CN(CC(=O)[O-])C(CC)CN1.[Mn+2] (stereo not shown)  Mn uptake (ICP-MS; BALB/c mice, intestine; intravenous, 0.05 mmol/kg, 1440 min; baseline: injected dose): 8.25 ± 5.49%
CCCCN1C(=O)c2cccc3c(NCCCCCCCCCCN4CCOCC4)ccc(c23)C1=O  absorption maximum (chloroform): 428 nm
CN1CCC[C@]1(C)/C=C/S(=O)(=O)NC(=O)Nc1c2c(cc3c1CCC3O)CCC2 (stereo partly shown)  AUC(0-tau) accumulation ratio (human, plasma; oral, 12.5 mg twice daily of parent drug, metabolite of dosed drug; baseline: day 14 over day 1): 1.9
CCCCN1C(=O)c2cccc3c(NCCCCN4CCOCC4)ccc(c23)C1=O  absorption maximum (methanol): 442 nm
Cc1ccc(OCC(=O)N(Cc2cccs2)c2ccn[nH]2)cc1  remaining compound (rabbit plasma; 750 ng/mL, 24 h, 37 °C): 20.1%
Cc1c(Cc2cncc(O[C@H](C)C(=O)O)c2)c2ccc(C(=O)N[C@@H](C)c3ccc(C(C)(C)C)cc3)cc2n1CC1CCC1  half-life (metabolic stability; mouse, liver microsomes): 0.727 h
CCCCCCCC/C=C/CCCCCCCC(=O)[O][Pt-2]1([OH])([Cl])([NH+]=C(CC)N(C)CCNc2c3ccccc3[nH+]c3ccccc23)[NH2+]CCC[NH2+]1.O=[N+]([O-])[O-].O=[N+]([O-])[O-]  logD (shake-flask; 1-octanol/water; pH 7): 0.78 ± 0.24
O=c1c2ccccc2[se]n1CCCCCCn1[se]c2ccccc2c1=O  solubility (shake-flask, RP-HPLC; 10% SBE-β-cyclodextrin solution; 24 h, 25 °C): 71 ± 4 µg/mL (≈ 148 µM)
CCCCN1C(=O)c2cccc3c(NCCCCCCCCN4CCOCC4)ccc(c23)C1=O  absorption maximum (ethyl acetate): 429 nm
CC[C@H](C)[C@H](NC(=O)[C@H](CCCCN)NC(C)=O)C(=O)N[C@@H](C)C(=O)N[C@@H](C)C(=O)N[C@@H](CC(C)C)C(=O)N[C@@H](CCCCN)C(=O)N[C@@H](CCC(=O)O)C(=O)N[C@@H](CCCCN)C(=O)N[C@H](C(=O)N[C@@H](C)C(=O)N[C@@H](C)C(=O)N[C@@H](CC(C)C)C(=O)N[C@@H](CCCCN)C(=O)N[C@@H](CCC(=O)O)C(=O)N[C@@H](CCCCN)C(=O)N[C@H](C(=O)N[C@H]1CSCc2ccccc2CSC[C@@H](C(=O)NCC(=O)N[C@@H](Cc2c[nH]c3ccccc23)C(N)=O)NC(=O)[C@H](CCCCN)NC(=O)[C@H](CC(C)C)NC(=O)[C@H](C)NC1=O)[C@@H](C)CC)[C@@H](C)CC  melting temperature (circular dichroism thermal melting; PBS; pH 7.4, single peptide 50 µM total): 39 °C
CCC[C@H]1CC[C@H](c2ccc(NC(=S)NC[C@@H]3[C@@H](O)[C@@H](O)[C@H]4[C@H](O)CCCN43)cc2)CC1  TBIL (NOD-SCID mouse, serum; ip, 30 mg/kg): 0.55 ± 0.18 mg/dL
O=C(Nc1cnccc1-c1ccc([18F])nc1)c1ccnc(NC(=O)C2CC2)c1  median SUV (PET imaging; FVB/NJ mice, both sexes, liver; intravenous, 120 min, together with: tariquidar 15 mg/kg iv, ≥2 h before): 5.95
CN1CCC[C@]1(C)/C=C/S(=O)(=O)NC(=O)Nc1c2c(cc3c1C(O)CC3)CCC2 (stereo partly shown)  AUC(0-tau) (human, plasma; oral, 12.5 mg twice daily of parent drug, day 1, metabolite of dosed drug): 15300 ng·h/mL
O=[N][Fe]1([N]=O)[S](CCO)[Fe]([N]=O)([N]=O)[S]1CCO  serum uric acid (aged C57BL/6JNarl mice on Western diet; po, 2.65 mg/kg daily, 16 weeks): 3.62 ± 0.38 mg/dL
O=C(Nc1cnccc1-c1ccc([18F])cc1)c1ccnc(NC(=O)C2CC2)c1  SUV (ex vivo gamma counting; GSK-3β transgenic mice, late-stage, thalamus; intravenous, 1.26 MBq/animal, 120 min, mean, no P-gp inhibitor): 0.11
C=CC(=O)Nc1cc(Nc2nccc(-c3cn(C)c4ccccc34)n2)c(OC)cc1N(C)CCNC  recovery (human plasma; 72 h, storage stability, medium QC sample): 46.7%
O=C1CCC(N2C(=O)c3ccc(N4CCC(C(=O)N5CCC(CCN6CCC(CNC(=O)c7cccc(-c8noc(C(F)(F)F)n8)c7)(c7nc(-c8ccccc8)cs7)CC6)CC5)CC4)cc3C2=O)C(=O)N1 (stereo not shown)  clearance (ICR mouse, plasma; oral, 30 mg/kg): 612 ± 79 mL/min/kg
CC(=O)N([O-])CCCCCNC(=O)CCC(=O)N([O-])CCCCCNC(=O)CCC(=O)N([O-])CCCCCN.[89Zr+4]  intact compound (PBS; 5 days, pH 7, 37 °C): 95.6 ± 4.2%
CCCCN1C(=O)c2cccc3c(NCCN4CCOCC4)ccc(c23)C1=O  absorption maximum (chloroform): 427 nm
COc1cccc(OC)c1-c1cc(C(=O)NC2(C(=O)O)C3CC4CC(C3)CC2C4)nn1-c1ccc(C(=O)N(C)CCCN(C)CCCN(C)C(=O)[C@H](CCCCNC(=O)[C@H](CC(C)C)NC(=O)C2OC2C(=O)O)NC(=O)CN2CCN(CC(=O)[O-])CCN(CC(=O)[O-])CCN(CC(=O)[O-])CC2)cc1C(C)C.[177Lu+3] (mixture of isomers)  tumour-to-liver ratio (mouse, HT-29 xenograft; 4 h post injection, biodistribution; baseline: tumour over liver uptake): 6.26
CC(C)(O)c1ncc([S@](N)(=O)=NC(=O)Nc2c3c(cc4c2CCC4)CCC3)s1  subjects with TEAEs (measured: blood, lymphatic system disorders; healthy human; oral, dose not given, all active doses pooled): 4%
CN1CCC[C@]1(C)/C=C/S(=O)(=O)NC(=O)Nc1c2c(cc3c1CC(O)C3)CCC2 (stereo partly shown)  AUC(0-tau) accumulation ratio (human, plasma; oral, 100 mg twice daily of parent drug, metabolite of dosed drug; baseline: day 14 over day 1): 1.7
CC(C(=O)O)n1nc(Cn2cc3cc(OCC[18F])c(Cl)cc3n2)c2ccccc2c1=O (racemic)  tracer uptake (rat, muscle; 1 h): 0.03 %ID/g
Cc1[nH]nc2c1N=C(c1ccccc1Cl)c1cnc(N3CCOCC3)cc1N2  half-life (male beagle dog, plasma; oral, 2 mg/kg): 6.87 h
COc1cc(/C=C2\CNC/C(=C\c3cc(Cl)c(O)c(OC)c3)C2=O)cc(Cl)c1O  cytotoxicity (MTT; BV-2, mouse; 3.75 to 60 µM, 24 and 48 h): not toxic
[2H]C1([2H])CC[C@@H](C[C@@H](C#N)NC(=O)[C@@H]2[C@@H]3[C@H](CN2C(=O)[C@@H](NC(=O)C(F)(F)F)C(C)(C)C)C3(C)C)C(=O)N1  intrinsic clearance (mouse liver microsomes; scaled to liver): 539 mL/min/kg
N=C(N)NCCC[C@@H]1NC(=O)[C@H](CO)NC(=O)[C@@H](NC(=O)[C@H](CO)NC(=O)[C@H](CO)NC(=O)[C@H](Cc2c[nH]c3ccccc23)NC(=O)CNC(=O)[C@H](CO)NC(=O)[C@@H](N)Cc2c[nH]c3ccccc23)CSSC[C@@H](C(=O)NCC(=O)O)NC(=O)[C@H](CO)NC1=O  AUCinf (human, plasma; i.v., 5 mg/kg thrice weekly, 4 weeks, median): 343 ng·h/mL
C=C(NC(=O)c1csc(-c2nc3c(cc2O)-c2nc(cs2)C(=O)NC(C(C)O)C(=O)NC(=C(C)OC)c2nc(cs2)C(=O)NC2c4nc(cs4)C(=O)NC(COC(=O)c4c5c6c(cccc6n4O)COC(=O)C(OC4CC(C)(O)C(N(C)C)C(C)O4)C2OC5)c2nc-3cs2)n1)C(N)=O (stereo not shown)  MRT(0-last) (cynomolgus monkey, male, plasma; intravenous infusion, 1 mg/kg single dose): 1.02 h
Cc1nn(-c2nc3c(F)cc(F)cc3s2)c(O)c1C(c1ccc(C(F)(F)F)cc1)c1c(C)nn(-c2nc3c(F)cc(F)cc3s2)c1O  plasma concentration (ICR mouse; intraperitoneal, 10 mg/kg, 24.0 h): 313 ng/mL and 329 ng/mL and 150 ng/mL
CC(C)C[C@H](NC(=O)[C@H](CCCNC(=N)N)NC(=O)[C@H](Cc1ccccc1)NC(=O)[C@H](Cc1ccccc1)NC(=O)[C@@H](NC(=O)[C@H](CO)NC(=O)[C@H](CO)NC(=O)[C@H](CC(=O)O)NC(=O)[C@H](CO)NC(=O)[C@H](CO)NC(=O)[C@H](CC(=O)O)NC(=O)[C@H](CO)NC(=O)[C@H](CO)NC(=O)[C@H](CC(=O)O)NC(=O)[C@H](CO)NC(=O)[C@H](CO)NC(=O)[C@H](CC(=O)O)NC(=O)[C@H](CO)NC(=O)[C@H](CO)NC(=O)[C@H](CC(=O)O)NC(=O)[C@H](CO)NC(=O)[C@H](CO)NC(=O)[C@H](CC(=O)O)NC(=O)[C@H](CO)NC(=O)[C@H](CO)NC(=O)[C@H](CC(=O)O)NC(=O)[C@H](CO)NC(=O)[C@H](CO)NC(=O)[C@@H](N)CC(=O)O)[C@@H](C)O)C(=O)N[C@@H](Cc1ccccc1)C(=O)N[C@@H](CC(N)=O)C(=O)N[C@@H](CCCNC(=N)N)C(=O)N[C@@H](C)C(=O)N[C@@H](CCCCN)C(=O)N[C@@H](CCCNC(=N)N)C(=O)N[C@@H](Cc1c[nH]cn1)C(=O)N[C@@H](Cc1c[nH]cn1)C(=O)NCC(=O)N[C@@H](Cc1ccc(O)cc1)C(=O)N[C@@H](CCCCN)C(=O)N[C@@H](CCCNC(=N)N)C(=O)N[C@@H](CCCCN)C(=O)N[C@@H](Cc1ccccc1)C(=O)N[C@@H](Cc1c[nH]cn1)C(=O)O  peptide concentration (HPLC-UV; human saliva; 0.5 h, 37 °C, together with: initial 1 mg/mL): 0.994 mg/mL
O=C(NCc1ccc2c(c1)CN(C(=O)c1cc(-c3ccccc3)no1)C2)C1C=CC=CC=C1  intrinsic clearance, scaled (CD-1 mouse liver microsomes; pH 7.4, together with: NADPH): 254 mL/min/kg
Cc1nc(N)nc2c1C(=O)N[C@@H](c1ccc(F)cc1-c1cccc(OCC[18F])n1)C2  uptake (ex vivo biodistribution; C57BL/6 mice, stomach; intravenous, 30 min): 0.93 ± 0.17 %ID
Cc1cc(-c2ccc(C(=O)[C@@H]3CCCC[C@H]3C(=O)Nc3cnn4c3C(=O)NCC4)cc2)[nH]n1  radioactivity recovery per interval (human, faeces; oral, 200 mg, 216-240 h; baseline: dose): 0.28% and 2.09%
CCCCN1C(=O)c2cccc3c(NCCCN4CCOCC4)ccc(c23)C1=O  absorption maximum (toluene): 427 nm
Cc1c(Cc2ccc(Cl)c(O[C@H](C)C(=O)O)c2)c2ccc(C(=O)N[C@@H](C)c3ccc(C(C)(C)C)cc3)cc2n1CC(C)C  half-life (metabolic stability; mouse, liver microsomes): > 1 h
O=C(O)CCCOc1ccc([18F])cc1-c1cc(-c2ccccc2C(F)(F)F)n(-c2ccccc2)n1  absorbed dose (OLINDA/EXM from mouse data; human adults, lungs): 9.23 µGy/MBq

For quick reference, copied from above:
N=C(N)NCCC[C@@H]1NC(=O)[C@H](CO)NC(=O)[C@@H](NC(=O)[C@H](CO)NC(=O)[C@H](CO)NC(=O)[C@H](Cc2c[nH]c3ccccc23)NC(=O)CNC(=O)[C@H](CO)NC(=O)[C@@H](N)Cc2c[nH]c3ccccc23)CSSC[C@@H](C(=O)NCC(=O)O)NC(=O)[C@H](CO)NC1=O  AUCinf (human, plasma; i.v., 5 mg/kg thrice weekly, 4 weeks, median): 343 ng·h/mL
CCCCN1C(=O)c2cccc3c(NCCCCCCCCN4CCOCC4)ccc(c23)C1=O  absorption maximum (ethyl acetate): 429 nm
CC(C)(O)c1ncc([S@](N)(=O)=NC(=O)Nc2c3c(cc4c2CCC4)CCC3)s1  subjects with TEAEs (measured: blood, lymphatic system disorders; healthy human; oral, dose not given, all active doses pooled): 4%
